# Measured values of several laboratories.
# Protocols differ between the studies behind these lines. ± marks the error that the study gave.
Structure (SMILES),target or system,test,test system,conditions,scale,measurement,value
Cc1ccc(Nc2c(NC3CCN(Cc4ccccc4)CC3)c(=O)c2=O)cc1,SH-SY5Y,MTT,,"6.25 µM, 24 h",,viability,99.8 ± 1.43%
Cn1c(=S)[nH]c2cc3ccccc3cc2c1=O,BGM,morphology and trypan blue,,72 h,,maximum non-toxic concentration,60 µg/mL
CCCCCCCCCCCCCCCC(=O)OCC(CSC[C@H](N)C(=O)N[C@@H](CO)C(=O)N[C@@H](CCCCN)C(=O)N[C@@H](CCCCN)C(=O)N[C@@H](CCCCN)C(=O)N[C@@H](CCCCN)C(=O)NCCCCCC(=O)N[C@@H](CCCCN)C(=O)N[C@@H](CC(C)C)C(=O)N[C@H](C(=O)N[C@@H](Cc1ccccc1)C(=O)N[C@@H](Cc1ccccc1)C(=O)N[C@@H](Cc1ccc2ccccc2c1)C(=O)O)C(C)C)OC(=O)CCCCCCCCCCCCCCC (stereo partly shown),BV-2,"RT-qPCR, refers to: Tnf",,1.0 µM,,mRNA level,increased
C=C(C)[C@@H]1CC[C@]2(CO)CC[C@]3(C)[C@H](CC[C@@H]4[C@@]5(C)CCCNC(C)(C)[C@@H]5CC[C@]43C)[C@@H]12,primary HFF,"cell viability, CellTiter-Glo",,HCMV AD169 assay setting,,CC50,17.2 µM
CSCC[C@H](NC(=O)[C@H](CC(N)=O)NC(=O)[C@@H](N)Cc1ccccc1)C(=O)N[C@@H](CCC(N)=O)C(=O)N[C@@H](C)C(=O)N[C@@H](CCC(N)=O)C(=O)N[C@@H](CCCNC(=N)N)C(=O)N[C@@H](CCCNC(=N)N)C(=O)N[C@@H](Cc1ccccc1)C(=O)N[C@@H](Cc1ccc(O)cc1)C(=O)N[C@@H](CCC(=O)O)C(=O)N[C@@H](C)C(=O)N[C@@H](CC(C)C)C(=O)N[C@@H](Cc1c[nH]cn1)C(=O)N[C@@H](CC(=O)O)C(=O)NCC(=O)NCC(=O)NCC(=O)NCC(=O)N[C@@H](CO)C(=O)N[C@@H](C)C(=O)N[C@@H](CCC(=O)O)C(=O)N[C@@H](C)C(=O)N[C@@H](CCC(=O)O)C(=O)N[C@@H](C)C(=O)N[C@@H](CCCCN)C(=O)N[C@@H](C)C(=O)N[C@@H](CCCCN)C(=O)N[C@@H](C)C(=O)N[C@@H](CCC(=O)O)C(=O)N[C@@H](C)C(=O)N[C@@H](CCC(=O)O)C(=O)N[C@@H](C)C(=O)N[C@@H](CCCCN)C(=O)N[C@@H](C)C(=O)N[C@@H](CCCCN)C(=O)O,mouse splenocytes,,,1 or 10 µg in 1 mL,,IL-6 production,not detected
CC=C(C)C(=O)OC1C(O)C2OC(COC(=O)CCC(=O)CCCCCCC(CCCCC)OC3OC(C)C(O)C(O)C3O2)C1OC(=O)C=Cc1ccccc1 (stereo not shown),Jurkat,cytotoxicity,,,,IC50,0.139 µM
CCCCCCCCC(=O)NCc1ccc(O)c(OC)c1,mouse mAb 1-D6,"antibody binding, indirect competitive ELISA",,with: coating antigen 1-OVA,,IC50,2.13 µg/mL
N=C(N)NCCC[C@@H](NC(=O)[C@H](N)Cc1c[nH]c2ccccc12)C(=O)N[C@H](CCCCN)C(=O)N[C@H](Cc1c[nH]c2ccccc12)C(=O)N[C@H](CCCNC(=N)N)C(=O)N[C@H](CCCCN)C(=O)N[C@H](Cc1c[nH]c2ccccc12)C(=O)N[C@H](CCCNC(=N)N)C(=O)N[C@H](CCCCN)C(=O)N[C@H](Cc1c[nH]c2ccccc12)C(=O)N[C@H](CCCNC(=N)N)C(=O)N[C@H](CCCCN)C(N)=O,HK-2,"cytotoxicity, MTT",,24 h,,IC50,128 µM
CC(C)C[C@@H](NC(=O)CCNc1ccc([N+](=O)[O-])c2nonc12)C(=O)N[C@H](CC(C)C)C(=O)N[C@H](CC(C)C)C(=O)N[C@H](CC(C)C)C(=O)N[C@H](Cc1ccc(OP(=O)(O)O)cc1)C(=O)O,SJSA-1,,,"200 µM, 4 h",,nuclear concentration,1680 ± 18 µM
CC(C)C[C@H](NC(=O)[C@H](CCCCN)NC(=O)[C@H](CC(C)C)NC(=O)[C@H](CC(C)C)NC(=O)[C@H](CCCCN)NC(=O)[C@H](CCCCN)NC(=O)[C@H](CC(C)C)NC(=O)[C@H](CC(C)C)NC(=O)[C@H](CCCCN)NC(=O)[C@H](CC(C)C)NC(=O)[C@H](CC(C)C)NC(=O)[C@H](CCCCN)NC(=O)[C@H](CCCCN)NC(=O)[C@H](CC(C)C)NC(=O)[C@@H](N)CSSC[C@H](N)C(=O)N[C@@H](CC(C)C)C(=O)N[C@@H](CCC(=O)O)C(=O)N[C@@H](CCC(=O)O)C(=O)N[C@@H](CC(C)C)C(=O)N[C@@H](CC(C)C)C(=O)N[C@@H](Cc1c[nH]cn1)C(=O)N[C@@H](Cc1c[nH]cn1)C(=O)N[C@@H](CC(C)C)C(=O)N[C@@H](CCC(=O)O)C(=O)N[C@@H](CCC(=O)O)C(=O)N[C@@H](CC(C)C)C(=O)N[C@@H](CC(C)C)C(=O)N[C@@H](Cc1c[nH]cn1)C(=O)N[C@@H](Cc1c[nH]cn1)C(N)=O)C(N)=O,mouse erythrocytes,hemolysis,,"1 h, 37 °C",,HC10,~172 µM
COc1cccc(CCNc2c(NC3CCN(Cc4ccccc4)CC3)c(=O)c2=O)c1,SH-SY5Y,MTT,,"12.5 µM, 24 h",,viability,77.87 ± 0.55%
CC(C)C[C@H](NC(=O)[C@H](CCCCN)NC(=O)[C@H](CC(C)C)NC(=O)[C@H](CC(C)C)NC(=O)[C@H](CCCCN)NC(=O)[C@H](CCCCN)NC(=O)[C@H](CC(C)C)NC(=O)[C@H](CC(C)C)NC(=O)[C@H](CCCCN)NC(=O)[C@H](CC(C)C)NC(=O)[C@H](CC(C)C)NC(=O)[C@H](CCCCN)NC(=O)[C@H](CCCCN)NC(=O)[C@@H](N)CC(C)C)C(N)=O,mouse erythrocytes,hemolysis,,"1 h, 37 °C",,HC10,12.3 µM
CC1N=C(c2ccccc2F)c2cc(Nc3ccccc3C(F)(F)F)ccc2NC1=O (stereo not shown),HEK293T,"cytotoxicity, CellTiter-Glo",,18 h,,LD50,69 ± 42 µM
CC[C@H](C)[C@H](NC(=O)[C@H](CCC(=O)O)NC(=O)CNC(=O)[C@@H](NC(=O)[C@H](CC(C)C)NC(=O)[C@H](CC(C)C)NC(=O)[C@H](CC(C)C)NC(=O)[C@H](CC(C)C)NC(=O)[C@H](CS)NC(=O)[C@H](CO)NC(=O)[C@H](Cc1ccccc1)NC(=O)CNC(=O)[C@H](CCCNC(=N)N)NC(=O)[C@@H]1CCCN1C(=O)[C@H](C)NC(=O)[C@H](CCSC)NC(=O)CNC(=O)CNC(=O)[C@H](Cc1ccccc1)NC(=O)[C@H](CCCCN)NC(=O)[C@H](Cc1c(C)cc(O)cc1C)NC(=O)[C@H](N)CCCNC(=N)N)[C@@H](C)O)C(=O)N[C@@H](CC(=O)O)C(=O)N[C@@H](CC(C)C)C(=O)N1CCC[C@H]1C(=O)N[C@H](C(=O)N[C@@H](CCCCN)C(=O)N[C@@H](CCCNC(=N)N)C(=O)N[C@@H](CCCNC(=N)N)C(=O)N[C@@H](C)C(N)=O)C(C)C,bEnd.3,,,"10 µM, 4 h, FITC-labelled, with: FBS 10%",baseline: SS-31,cellular uptake,4.6 fold
CSCC[C@H](NC(=O)CCCCCNC(=S)Nc1ccc2c(c1)C(=O)OC21c2ccc(O)cc2Oc2cc(O)ccc21)C(=O)N[C@@H](C)C(=O)N[C@@H](CC(N)=O)C(=O)N[C@@H](CC(C)C)C(=O)NCC(=O)N[C@@H](Cc1ccc(O)cc1)C(=O)N[C@@H](Cc1c[nH]c2ccccc12)C(=O)N[C@@H](CC(C)C)C(=O)N[C@@H](CC(C)C)C(=O)N[C@@H](C)C(=O)N[C@@H](CC(C)C)C(=O)N[C@@H](Cc1ccccc1)C(=O)N[C@H](C(=O)N[C@H](C(=O)N[C@@H](Cc1ccc(O)cc1)C(=O)N[C@@H](Cc1c[nH]c2ccccc12)C(=O)N[C@H](C(=O)N[C@@H](CC(=O)O)C(=O)N[C@@H](CC(C)C)C(=O)NCC(=O)N[C@@H](CC(C)C)C(=O)N[C@H](C(=O)N[C@@H](CCCCN)C(=O)N[C@@H](CCCCN)C(=O)N[C@@H](CCCNC(=N)N)C(=O)N1CCC[C@H]1C(=O)N[C@@H](CCCCN)C(=O)N1CCC[C@H]1C(=O)O)C(C)C)[C@@H](C)O)[C@@H](C)O)C(C)C,human PBMCs,"imaging flow cytometry, FITC-labelled",,"1 µM, 30 min",baseline: CD19+ B cells,cells with internalized peptide,30.5%
CC1C(=NNC(=O)c2ccncc2)C(C)C(c2ccc(Br)cc2)OC1c1ccc(Br)cc1 (stereo not shown),human PBMC,"cytotoxicity, MTT",,,,IC50,514 µg/mL
Nc1ccc(CCNc2c(NC3CCN(Cc4ccccc4)CC3)c(=O)c2=O)cc1,SH-SY5Y,MTT,,"6.25 µM, 24 h",,viability,102 ± 2.78%
CCn1c(NN)nc2cc3ccccc3cc2c1=O,BGM,morphology and trypan blue,,72 h,,maximum non-toxic concentration,55 µg/mL
Cc1c(C)c(C)[c-](C)c1C.Fc1c[c-]c(-c2ccccn2)cc1.[Cl-].[Ir+3],A2780,"ICP-MS, refers to: iridium in cytosol fraction",,IC50,,iridium share in fraction,51.4%
N#Cc1ccc(CSc2nc3cc4ccccc4cc3c(=O)n2Cc2ccccc2)cc1,BGM,morphology and trypan blue,,72 h,,maximum non-toxic concentration,65 µg/mL
COc1ccc(Nc2c(NC3CCN(Cc4ccccc4)CC3)c(=O)c2=O)cc1OC,SH-SY5Y,MTT,,"6.25 µM, 24 h",,viability,76.4 ± 1.98%
COC(=O)C1=CO[C@@H](O)[C@@H]2C(Cn3cc(C4(O)CCCCC4)nn3)=CC[C@H]12,SK-N-SH,MTT,,"0.075 to 0.6 µM, 24 h, with: H2O2",,viability,> 78%
O=C(CCC(=O)OCCNC(=O)[C@H](Cc1ccccc1)NC(=O)[C@H](Cc1ccccc1)NC(=O)Cc1ccc2ccccc2c1)NCCS(=O)(=O)O,SK-OV-3,,,"50 µM, 4 h",baseline: hydrogelator over precursor,ratio,6.95
N=C(N)NCCC[C@@H]1NC(=O)[C@H](CCCCNC(=O)CNC(=O)CNC(=O)CNC(=O)CC[C@H](NC(=O)CCOCCOCCOCCOCCNC(=O)CC[C@H](NC(=O)CN2CCN(CC(=O)O)CCN(CC(=O)O)CCN(CC(=O)O)CC2)C(=O)NCCOCCOCCOCCOCCC(=O)N[C@@H](CCC(=O)NCC(=O)NCC(=O)NCC(=O)NCCCC[C@@H]2NC(=O)[C@@H](Cc3ccccc3)NC(=O)[C@H](CC(=O)O)NC(=O)CNC(=O)[C@H](CCCNC(=N)N)NC2=O)C(=O)NCC(=O)NCC(=O)NCC(=O)NCCCC[C@@H]2NC(=O)[C@@H](Cc3ccccc3)NC(=O)[C@H](CC(=O)O)NC(=O)CNC(=O)[C@H](CCCNC(=N)N)NC2=O)C(=O)NCC(=O)NCC(=O)NCC(=O)NCCCC[C@@H]2NC(=O)[C@@H](Cc3ccccc3)NC(=O)[C@H](CC(=O)O)NC(=O)CNC(=O)[C@H](CCCNC(=N)N)NC2=O)NC(=O)[C@@H](Cc2ccccc2)NC(=O)[C@H](CC(=O)O)NC(=O)CNC1=O [indium-111 labelled],,,"athymic nude mouse, U-87 MG xenograft, tumour",,,washout half-life,~35 h
COc1ccc(CNc2c(NC3CCN(Cc4ccccc4)CC3)c(=O)c2=O)cc1OC,SH-SY5Y,MTT,,"12.5 µM, 24 h",,viability,102 ± 0.97%
CCn1c(SCCCN2C(=O)c3ccccc3C2=O)nc2cc3ccccc3cc2c1=O,BGM,morphology and trypan blue,,72 h,,maximum non-toxic concentration,25 µg/mL
N=C(N)NCCC[C@@H]1NC(=O)[C@H](Cc2csc3ccccc23)NC(=O)[C@@H](Cc2ccccc2)NC(=O)[C@H](Cc2ccccc2)NC(=O)[C@H](CCC(=O)NCCOCCOCC(=O)N[C@@H](CCCCNC(=O)c2ccc3c(c2)C(=O)OC32c3ccc4cc(O)ccc4c3Oc3c2ccc2cc(O)ccc32)C(N)=O)NC(=O)[C@@H](CCCNC(=N)N)NC(=O)[C@H](CCCNC(=N)N)NC(=O)[C@@H](CCCNC(=N)N)NC1=O,HeLa,,,"0.5 µM, 1% FBS",baseline: CPP12,endosomal escape efficiency,198 ± 7%
O=C(COc1ccccc1P(=O)(O)O)NCC(F)(F)c1ccccc1,INS1,,,"concentration not given, low glucose",,cytotoxicity,not toxic
Cc1cc(C)cc([C@@H]2C[C@H]2C(=O)N[C@@H](C(=O)NCc2ccccc2)c2ccc(C)c(C)c2)c1,BHK-21,"cell growth or viability, MTT",,24 h,,CC50,> 100 µM
NCCCC[C@H](NC(=O)[C@H](Cc1ccccc1)NC(=O)[C@H](CCCCN)NC(=O)[C@H](Cc1ccccc1)NC(=O)[C@H](CCC(=O)O)NC(=O)[C@H](Cc1ccccc1)NC(=O)[C@H](CCC(=O)O)NC(=O)[C@@H](N)Cc1ccccc1)C(=O)O,hMSC,RP-HPLC,"hydrogel, serum-free medium","day 6, hydrogel 25 mg/mL, 20 mM",baseline: day 0,intact peptide remaining,23.3 ± 0.1%
Cc1ccc(CNc2c(NC3CCN(Cc4ccccc4)CC3)c(=O)c2=O)cc1,SH-SY5Y,MTT,,"6.25 µM, 24 h",,viability,102 ± 1.74%
O=C(CCCC[C@@H]1SC[C@@H]2NC(=O)N[C@@H]21)NCCCC[C@@H](NC(=O)[C@@H](Cc1ccccc1)NC(=O)[C@@H](Cc1ccccc1)NC(=O)Cc1ccc2ccccc2c1)C(=O)N[C@H](Cc1ccc(OP(=O)(O)O)cc1)C(=O)O,HS5,"dephosphorylation, refers to: D1-B",,24 h,,conversion,68.5%
CCc1ccc(Nc2c(NC3CCN(Cc4ccccc4)CC3)c(=O)c2=O)cc1,SH-SY5Y,MTT,,"6.25 µM, 24 h",,viability,88.1 ± 2.02%
CN[C@](C)(C[18F])C(=O)O,SK-OV-3 tumour model,,"host not given, bone","1 h, tumour-bearing",,tracer uptake,2.3 %ID/g
